{"data": "Measured values collected from several papers", "target": "Mitogen-activated protein kinase 11 (MAPK11, Homo sapiens, UniProt Q15759)", "note": "Protocols differ between the studies behind these lines. Values joined by “and” are separate records of one study, mostly repeats; a detail may differ.", "chain of UniProt Q15759 (whole entry, looked up)": "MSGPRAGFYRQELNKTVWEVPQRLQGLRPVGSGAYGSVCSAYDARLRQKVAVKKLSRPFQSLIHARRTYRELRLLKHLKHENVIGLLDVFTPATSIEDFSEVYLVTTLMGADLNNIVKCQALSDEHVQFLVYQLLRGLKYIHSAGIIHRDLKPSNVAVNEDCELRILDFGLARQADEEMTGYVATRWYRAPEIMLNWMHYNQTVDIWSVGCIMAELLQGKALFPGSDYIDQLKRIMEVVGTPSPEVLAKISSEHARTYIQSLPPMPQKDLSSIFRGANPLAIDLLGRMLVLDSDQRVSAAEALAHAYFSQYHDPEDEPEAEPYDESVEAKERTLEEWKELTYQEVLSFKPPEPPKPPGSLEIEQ"}
{"SMILES": "CS(C)(=O)=Nc1ccc(-c2ccc(-c3nc4cc(O[C@@H]5CO[C@H]6[C@@H]5OC[C@H]6O)[nH]c4cc3F)cc2)cc1", "test": "enzyme activity, inhibitor", "setting": "10 µM", "endpoint": "inhibition", "result": "11%"}
{"SMILES": "[CH3][Ti+2][O]C(=O)c1ccc([S][Au][PH](c2ccccc2)(c2ccccc2)c2ccccc2)cc1.c1cc[cH-]c1.c1cc[cH-]c1", "test": "kinase activity, HotSpot kinase", "setting": "1 µM, with: ATP 10 µM", "endpoint": "remaining activity", "result": "116% and 121%"}
{"SMILES": "O=C(O)c1ccccc1/C=N/Nc1nc(-c2ccccc2Cl)cs1", "test": "enzyme activity, inhibitor", "setting": "1 µM", "endpoint": "inhibition", "result": "4.93%"}
{"SMILES": "C[C@H](NCc1ccc(-c2ccc(C(F)(F)F)cc2)cc1)C(N)=O", "test": "cell-free assay, competition with immobilised ligand", "setting": "1 µM", "endpoint": "inhibition", "result": "0%"}
{"SMILES": "CC(C)[C@H]1NC(=O)C[C@H]2/C=C/CCSSC[C@@H](NC1=O)C(=O)N[C@H](Cc1cccc3ccccc13)C(=O)NCC(=O)O2", "test": "enzyme activity, inhibitor", "setting": "10 µM", "endpoint": "inhibition", "result": "2.6%"}
{"SMILES": "Nc1ccc(/C=C/C(=O)N2CCc3c(oc4c(-c5ccc(F)cc5)cc(-c5ccc(C(=O)N6CCC(F)(F)CC6)cn5)cc34)C2)cn1", "test": "binding, competition with immobilised ligand", "setting": "1 µM", "endpoint": "remaining binding", "result": "97%"}
{"SMILES": "O=C1NC(=O)c2c1c1cc(F)c[n+]3c1c1c2c2cc(O)ccc2[n]1[Ru-4]312([N]=C=S)[S+]3CC[S+]1CC[S+]2CC3 (centres unmarked)", "test": "enzyme activity", "setting": "100 nM, human enzyme, with: 10 µM ATP", "scale": "relative to: untreated", "endpoint": "remaining activity", "result": "98%"}
{"SMILES": "CCOC(=O)[C@@H]1Cc2c(cc([N+](=O)[O-])cc2[N+](=O)[O-])[C@H](O)[C@]12C(=O)Nc1ccc(Br)cc12", "test": "binding, competition with immobilised ligand", "setting": "0.1 µM", "endpoint": "remaining binding", "result": "99%"}
{"note": "Excerpt of the above:"}
{"SMILES": "CCOC(=O)[C@@H]1Cc2c(cc([N+](=O)[O-])cc2[N+](=O)[O-])[C@H](O)[C@]12C(=O)Nc1ccc(Br)cc12", "test": "binding, competition with immobilised ligand", "setting": "0.1 µM", "endpoint": "remaining binding", "result": "99%"}
